Results of several laboratories.
Parts stem from different laboratories: compare values within a part only.

Study 1 — organism: Saccharomyces cerevisiae; effect on: pheromone growth arrest; technique: yeast competitive growth sequencing; molecule type: peptide; strain: no Cln2 overexpression; notes: peptide tiling library; reading: direction not given
Sequence	enrichment score
NEGVSNAVRRSLYIRD	-0.151
SNFFDVIKQLFSDEKN	-0.175
NESHLDKEHDAVEVAD	0.251
AEHPKPSACRNLFGPV	0.23
ASVLSKPIFCFVKD	-0.0777
EHCRVLFLDHVMYTIH	-0.103
DVSERGYVILPNDYFE	0.07
QYQVVDDIVSKLVFDF	0.0924
ATNSSHTDAHEILVSD	0.463
NSMKELNFSHLPSNSV	-0.25
ESSQLTVQAEFDMSAI	-0.0229
LENIEPLQVSFAVLSS	0.36
VLPGGVPSPGASLTSM	-0.576
KVRRNLFNQELLSP	0.115
DKYDEGLYRFNSLNDL	-0.321
QNPCGSKACRRLFGPV	-0.274

Study 2 — technique: EMSA with sequencing; molecule type: double-stranded DNA, one strand shown; sample: in vitro; concentration: 10 and 20 nM; relative to: negative control set to 0; reading: higher = stronger binding
Target: Hepatocyte nuclear factor 3-alpha (Foxa1, Mus musculus, UniProt P35582, residues 1-468, full length assumed)
Notes: whole designed probe, mean of two concentrations, ends assumed
Residues (chain): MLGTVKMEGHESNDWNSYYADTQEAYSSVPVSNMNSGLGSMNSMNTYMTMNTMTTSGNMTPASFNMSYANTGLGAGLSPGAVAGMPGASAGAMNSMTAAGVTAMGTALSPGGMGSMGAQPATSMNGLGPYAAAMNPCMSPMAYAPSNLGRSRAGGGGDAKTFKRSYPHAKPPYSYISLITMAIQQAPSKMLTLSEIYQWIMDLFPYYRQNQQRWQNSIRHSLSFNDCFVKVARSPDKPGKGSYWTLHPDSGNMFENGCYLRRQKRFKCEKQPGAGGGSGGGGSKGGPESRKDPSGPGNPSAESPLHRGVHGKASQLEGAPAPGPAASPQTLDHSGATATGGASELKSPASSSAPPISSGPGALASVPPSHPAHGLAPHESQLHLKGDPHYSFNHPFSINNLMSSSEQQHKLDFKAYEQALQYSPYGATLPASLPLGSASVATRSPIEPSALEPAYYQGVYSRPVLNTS
Strand	normalised bound fraction
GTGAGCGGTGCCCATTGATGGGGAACAGGTGAATTGGCTGCTTCCATCCTGGCTTGGAACTTCAGACATAGAAGCCTTGGGACTTTCTCAGGCTGACTCATGCACTTTCTCCAGATGCTTGTTTGCTGAATCTCTGTGGATCACGTGACCTTAGCCAGGGATGTTGGTGAAACTGTGTGTTGGTCTAGGTACCTAGCCCATGCTAGGTGCTCATCGAATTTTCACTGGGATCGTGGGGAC	0.046 ratio
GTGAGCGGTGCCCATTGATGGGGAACACCCGCGTGCAAGGGGACCGAGCCCCGGGAAGGGGAAGAACTTGTAATCGCTTGCAGCGGGACAATGTCGACTTTTGAACCTCTAACCACTAAGCAAACAACCCATGTGCTCTTGCTCCACTGTCCAAACAGGGTTTATTGACAGGCGTTTCACGGCAACGCATAGCAACCCCGGCGGCTAGGGGGCGGGCCTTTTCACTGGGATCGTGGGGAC	0.434 ratio
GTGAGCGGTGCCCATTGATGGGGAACATGAAGGGCTGCCAGTGTAATTTGAACCTCAAATAAACAACAGATAAAACTGTAGTATAAGTATGTCCCATATATTGCACAACACGATCTTTTTGTTTGCCTAATCTGGCAAAGATATTGACTTAACACACACTAATCTGTTGACAGGTAGGTGAAATATTTGAACTTCTACGTTGCTTCTCTAATCCTGTCCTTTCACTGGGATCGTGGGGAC	0.391 ratio
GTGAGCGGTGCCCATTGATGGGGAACACAAAAATACTTCAGTAGAGTGTAAAAAAAAATGCACTTGTGGTTCAACTTTTAACAAAAGGCATTCATGCCAGGTATTTCTTACCACCTTGCATGTTTACTTTGTGGTTGTTATCACTGAAACCTCAGAACATTAGTTGTTTCTTAAACAATGTACTGTCTTATTTATTTAAGCTGTTGCCATGTTACTGTTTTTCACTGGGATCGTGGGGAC	0.481 ratio
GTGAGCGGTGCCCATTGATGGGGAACACACCCTTGACCTCTTCATATTGACATCATACGGTACTATATCCTCACAAAATGATTTCCAGTGCTTAATTTAGGTTGTAGCTGCTTTCTTAAGCAATCTGGAAGAAAAACAGCTAGGGTAGTAATTGGAGTGTCTGTCTTTGAGTTTCCAGTTGTTATGGGATATTTATCTCAAAGGCCAGATGCATCTGACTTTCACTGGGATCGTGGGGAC	-0.033 ratio
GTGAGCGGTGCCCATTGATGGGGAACGAAATCAGATGGGAACAAACTATTCCAATATACAAATCAAATTTCAGAGTCTGAGTGTACACAGAAAAATTACTGGATATCCTGTTGGACTATGTACATAACAATGACACAGTGATTTATGAGGGTATGATGGGGCAGAGGGTAGCGGGTGATGTTGGAGTTGATTCATCACTTAAGCGCTAATCCATTCACCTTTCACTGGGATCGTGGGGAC	0.245 ratio
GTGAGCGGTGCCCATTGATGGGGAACACATTTGACAAACTTCAACACCCTTTCATGACAAAAACACTTATAGAAGGAAACAACCTCAACATAATAAAAGCCATATATGAAAAACCCACAGCAATCTTCACACTCCATGGTGAACGTCTGAAAGCTTTTTCTCTAAAAATCAAGAACAAGGCAAAGATGCTCAATTTCACCACTTCTATTCAACGTAGTTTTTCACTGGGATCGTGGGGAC	-0.0381 ratio
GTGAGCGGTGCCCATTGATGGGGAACCATTAGAGTCAAAGTTGTTAAGGGGAGCTAGTCATAGCTACCACGTGGCCAGGCATGTGGAACCAGACACCAGGATGAATCATCACACATAAAGTAAATAGATGAATAATGCTGACAACCTAGTTCATAGTGACACACTACTTGAGATATATAGAATAACATTATTACCCAGTAAGTATGTGAACATTCCGATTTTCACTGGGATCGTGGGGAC	0.435 ratio

Study 3 — technique: universal PBM; molecule type: double-stranded DNA, one strand shown; sample: in vitro; concentration: 600 nM; reading: higher = stronger binding
Target: Sal-like protein 4, full length isoform A (SALL4, Homo sapiens, UniProt Q9UJQ4, residues 1-1053)
UniProt Q9UJQ4, sequence (whole entry, looked up): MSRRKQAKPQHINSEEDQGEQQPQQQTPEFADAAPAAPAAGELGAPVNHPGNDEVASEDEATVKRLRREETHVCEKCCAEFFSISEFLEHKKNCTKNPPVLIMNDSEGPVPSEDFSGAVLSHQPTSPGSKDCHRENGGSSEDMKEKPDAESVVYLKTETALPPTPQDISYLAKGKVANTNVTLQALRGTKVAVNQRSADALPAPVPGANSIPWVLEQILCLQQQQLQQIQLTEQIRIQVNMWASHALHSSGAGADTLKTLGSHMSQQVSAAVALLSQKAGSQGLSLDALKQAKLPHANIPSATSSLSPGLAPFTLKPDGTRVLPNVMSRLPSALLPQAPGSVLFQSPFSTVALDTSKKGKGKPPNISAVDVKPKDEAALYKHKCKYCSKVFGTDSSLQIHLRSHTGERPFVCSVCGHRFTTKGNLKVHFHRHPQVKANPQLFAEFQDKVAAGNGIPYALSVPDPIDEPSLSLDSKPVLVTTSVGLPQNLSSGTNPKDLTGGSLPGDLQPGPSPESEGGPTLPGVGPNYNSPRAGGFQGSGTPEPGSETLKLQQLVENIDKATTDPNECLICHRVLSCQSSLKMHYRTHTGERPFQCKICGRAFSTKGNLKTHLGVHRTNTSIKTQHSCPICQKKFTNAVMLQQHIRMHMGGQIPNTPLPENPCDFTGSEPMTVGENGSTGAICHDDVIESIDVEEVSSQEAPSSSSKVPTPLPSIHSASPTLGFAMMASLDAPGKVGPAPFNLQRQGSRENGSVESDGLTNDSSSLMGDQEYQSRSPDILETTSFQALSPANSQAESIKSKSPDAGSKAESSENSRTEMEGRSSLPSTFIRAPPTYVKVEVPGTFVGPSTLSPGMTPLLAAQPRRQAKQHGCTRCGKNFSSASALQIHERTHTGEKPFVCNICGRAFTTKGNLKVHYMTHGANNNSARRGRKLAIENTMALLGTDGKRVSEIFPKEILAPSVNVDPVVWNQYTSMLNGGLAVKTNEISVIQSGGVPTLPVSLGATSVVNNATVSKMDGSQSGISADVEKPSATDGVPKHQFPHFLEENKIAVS
Notes: 8-mer, flanks averaged, mean of replicates
Strand	E-score
AGGAACCC	-0.323
CCAAATCG	0.104
CCTTGGAG	-0.0947
GTAGGGAA	0.0217
ATGAACTC	-0.0135
ACGGTGAA	0.114
CCCTGACA	-0.0013
AATTAGCA	0.217
ACTCTCGC	-0.16
CAATCCTA	0.0542
CAATACCC	0.0203
GGCTAGCC	-0.347
TACAAAGA	0.324
AGTTCTTG	0.115
CGTTTCAG	-0.0473
AAAGACTC	-0.036
TATTCCAA	0.283
CATTCCTC	0.0246
AACTGCGG	-0.188
CAGATCAA	-0.14
AACAGAGT	0.0738
GAGTAGGA	-0.0666
CGTGTGTC	-0.0886
ACTAGAGG	-0.107
AAAAGCGA	0.105

Study 4 — technique: protein-binding microarray; molecule type: double-stranded DNA, one strand shown; sample: in vitro; concentration: not given; reading: higher = stronger binding
Target: Protein C-ets-1 (ETS1, Homo sapiens, UniProt P14921, residues 1-441, Y397A, full length assumed)
UniProt P14921, sequence (whole entry, unmodified, looked up): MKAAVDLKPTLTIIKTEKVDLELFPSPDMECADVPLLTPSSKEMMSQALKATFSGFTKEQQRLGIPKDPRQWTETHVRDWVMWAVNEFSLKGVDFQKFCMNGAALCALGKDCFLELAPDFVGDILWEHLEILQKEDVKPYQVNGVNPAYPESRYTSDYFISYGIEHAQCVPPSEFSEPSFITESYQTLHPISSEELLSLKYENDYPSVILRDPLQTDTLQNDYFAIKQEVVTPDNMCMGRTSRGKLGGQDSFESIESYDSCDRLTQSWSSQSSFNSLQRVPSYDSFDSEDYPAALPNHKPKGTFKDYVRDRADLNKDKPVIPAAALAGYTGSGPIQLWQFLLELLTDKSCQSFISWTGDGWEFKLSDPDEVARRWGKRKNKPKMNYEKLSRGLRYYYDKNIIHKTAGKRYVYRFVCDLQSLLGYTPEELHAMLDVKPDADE
Notes: k-mer, scored over probes, only values ≥0.25
Strand	E-score
GAAACACA	0.252
GCGCGCGC	0.323
ATTGACAA	0.301
ATGGCAAC	0.274
CAAAATGC	0.284
GACTGCCA	0.312
GGTTACAA	0.292
AAGTGTAC	0.26
GTGCGCAC	0.362
GTGGGGTA	0.263
GACAACAA	0.357
GTTGCCAA	0.354
CTGCCAAC	0.268
ACCCTCCC	0.269
ACAACGGA	0.263
GACACACC	0.273
AGTGACAA	0.341
TGCGGCAA	0.26
GGAAGTTA	0.314
GCCCCTCC	0.427
TGTTACAA	0.267
CCCACCCG	0.308
GGCGCAAA	0.282
CCGCAACA	0.26
ACGTCGCC	0.265

Study 5 — technique: RNA Bind-n-Seq; molecule type: RNA; sample: in vitro; concentration: 365 nM; relative to: no-protein control; reading: higher = stronger binding
Target: RNA binding protein fox-1 homolog 2, RRM domain, GST-SBP tag (RBFOX2, Homo sapiens, UniProt O43251-10, residues 100-194)
Notes: natural RNA segment, single round, ends assumed
Target sequence (chain): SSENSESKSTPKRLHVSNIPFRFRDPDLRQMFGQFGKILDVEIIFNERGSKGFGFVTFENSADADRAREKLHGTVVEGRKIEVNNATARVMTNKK
Strand	RBNS enrichment (R)
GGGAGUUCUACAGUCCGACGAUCCACUCAGCUGUGGUGUCUCGUGGCCCCGUGAACUCACCGCUCACCCUCCUGAACCCCCCCCCCCCGCCUUUUUUUAAAAUUCACCCCCAUCCACAGUUGUCAGUUGUGAAUGGAAUUCUCGGGUGCCAA	1.32
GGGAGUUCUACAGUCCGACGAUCUAAAAACUGCAAAACCAAUCUGUAUCAUGUACCAAACUGACUUAAAAUAAAUCUACAUGUUUAUUGAUUAAUAGUGUGUUACUGCGUUUUGCUUAUAAAAUUUAAUGCUUUGGAAUUCUCGGGUGCCAA	0.409
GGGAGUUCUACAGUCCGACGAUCCAUGUUUCCCAAAGCUCAGGUUCAUCUCCACUAUUGACAGAGUCGGGUAGUGGGAGAGUAUAAGUGACUUGAGACAGAGUGUCCUUGCUCAGAAAACUGUGAAGCAGGGGUGGAAUUCUCGGGUGCCAA	0.277
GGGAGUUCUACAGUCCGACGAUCCUCUUUAAAUACAUUAUGGAAGAUAAUGAAGAUACUUCAUUCUCUUGUGAUAUCAGUGUAUGCGUACCUGUGUCGCUUUAUUUGCAGUGUGUUGAGGGACUGGUGUAUCCUGGAAUUCUCGGGUGCCAA	0.293
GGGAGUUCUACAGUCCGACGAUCAAGAAAAAUUACUUUUUACUUCUGUUCUUAUCCAUUCGGCAUGUUGUCUUCUUUUUUCCUUUUUAAAGGUAGUGGUAUAACUAACUAAUAACUUUCAAAAUUACCUGCUUUGGAAUUCUCGGGUGCCAA	2.73
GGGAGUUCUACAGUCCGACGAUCACAUUAAGAAAAUUUGUAUGAAAUAAUUUAGUCAUCAUGAAAUAUUUAGUUGUCAUAUAAAAACCCACUGUUUGAGAAUGAUGCUACUCUGAUCUAAUGAAUGUGAACAUUGGAAUUCUCGGGUGCCAA	0.811
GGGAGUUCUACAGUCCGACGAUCUUAACAUAAAGACCAUUCAUCAGCGAAUAACUACUGAGCAACUCUAGUGUGCCAGCACAGGCCAGACAUACUAGUGAGCCAGGCACAUCUGGCCUUGGGAAACUCAUCCUUGGAAUUCUCGGGUGCCAA	0.237
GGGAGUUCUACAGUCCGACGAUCGAAGCUCUAGCUUAGCCUUCUCAGUAAGGUGUAAGAAGCUGGUGUUGCUGUGUAGUGUUAAUUUAUUCUGAGGAUGUGUGGCAAGCGCCUGGCACUGGGUAAAUGUAUAGUGGAAUUCUCGGGUGCCAA	0.743
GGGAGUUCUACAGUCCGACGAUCCUGCUGCCCCUCCUUCCUGCUGGUUCAGGUAGCCCCAGCCACGUGGGUUAGAGUCCUGUGCUGGCCUGCCAUGGCAGCUGGCUACCUUCCAGACCAACUGUAGAGAUACCUGGAAUUCUCGGGUGCCAA	0.327
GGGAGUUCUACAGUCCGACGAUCACUACAGAAUAAUGUGCUAAGUAGUGCUAAAUAGUUCUUGACGAAGAAAACAGUCACUGCAUUUAUCUCUGUGAGUCUUUGUUCAGAGAGGCCUUUAGUCUAGAUUCUGCUGGAAUUCUCGGGUGCCAA	0.955
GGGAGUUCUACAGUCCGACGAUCAACUGUGCUAAGAGAUCUUGACACAGCAGUAAGAUUCCAGUCUCCUUAUUACCAAACUCUCAACUCAUACGCAGCUUCAAUUUCCGAAAUGGCUUCAAAUAGGGAGGGUAUGGAAUUCUCGGGUGCCAA	0.382
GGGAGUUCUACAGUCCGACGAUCAAUAAAUCUAUUAGGGCCAGGGCCUGGAGACUGGUUCUAAAACUCACAAAUUGAGGAGUGAAAUAGGAGACUGCAUGCUGGAUUUCAUGAUGAAAAUUUAUACUUUCACAUGGAAUUCUCGGGUGCCAA	6.14
